Published values pooled from the literature.
Lines come from different studies, so protocols differ.
Cell line: SR

| Structure (SMILES) | assay | setting | how to read | endpoint | value |
| --- | --- | --- | --- | --- | --- |
| Cc1n[nH]c2nc(-c3ccc(Cl)cc3)c3c(NC(=O)c4ccccc4)nnc-3n12 | SRB | 10 µM, NCI60 single-dose screen | reference: untreated | cell growth | 87% |
| CCN(CC)c1ccc(C=NNC(=O)CSc2nc3ccccc3c(=O)n2Cc2ccc(S(N)(=O)=O)cc2)c(O)c1 | NCI five-dose screen |  |  | TGI | > 100 µM |
| CCCCN1CCN(c2ccc3[nH]c(-c4ccc5[nH]c(-c6ccc(OCC)cc6)nc5c4)nc3c2)CC1 | SRB | 10 µM, 48 h |  | growth percent | -1.98% |
| Cc1cc(=O)[nH]c(=O)n1Cc1cn(-c2cc3ccccc3oc2=O)nn1 | NCI60 single-dose screen | 10 µM |  | growth percentage | 113% |
| S=C([S][Au-][P+](CCCCCC[P+]([Au-][S]C(=S)n1cccn1)(c1ccccc1)c1ccccc1)(c1ccccc1)c1ccccc1)n1cccn1 | cell growth, NCI-60 screen | leukaemia |  | log TGI | -5.62 log10 M |
| O=C1NC(c2ccccc2)(c2ccccc2)C(=O)N1Cc1cn(-c2cc3ccccc3oc2=O)nn1 | NCI60 single-dose screen | 10 µM |  | growth percentage | 93.1% |
| COC(=O)/C=C1\C(=O)C=C2C3CC4CC(CCC4(C)N21)C3(C)NC(C)=O (stereo not drawn) | cell growth | NCI screen |  | IC50 | 18.3 µM |
| CCCCN1CCN(c2ccc3[nH]c(-c4ccc5[nH]c(-c6ccc(C(F)(F)F)cc6)nc5c4)nc3c2)CC1 | SRB | 10 µM, 48 h |  | growth percent | -46.8% |
| Cc1cc(=O)[nH]c(=O)n1Cc1cn(-c2c3ccccc3nc3ccccc23)nn1 | NCI60 single-dose screen | 10 µM |  | growth percentage | 11.4% |
| Cc1cc(C)n(-c2nc(-c3ccc(Cl)cc3)c3c(NC(=O)c4ccccc4)nnc-3[nH]2)n1 | SRB | 10 µM, NCI60 single-dose screen | reference: untreated | cell growth | 67.8% |
| CCCN1CCN(c2ccc3[nH]c(-c4ccc5[nH]c(-c6ccc(C(F)(F)F)cc6)nc5c4)nc3c2)CC1 | SRB | 10 µM, 48 h |  | growth percent | -35.5% |
| CCOC(=O)CSc1nc(-c2ccc(Cl)cc2)c2c(NC(=O)c3ccccc3)nnc-2[nH]1 | SRB | 10 µM, NCI60 single-dose screen | reference: untreated | cell growth | 84.9% |
| CCCN1CCN(c2ccc3[nH]c(-c4ccc5[nH]c(-c6cc(OC)c(OC)c(OC)c6)nc5c4)nc3c2)CC1 | SRB | 10 µM, 48 h |  | growth percent | 34.6% |
| Cc1cc(=O)[nH]n1-c1nc(-c2ccc(Cl)cc2)c2c(NC(=O)c3ccccc3)nnc-2[nH]1 | SRB | 10 µM, NCI60 single-dose screen | reference: untreated | cell growth | 85.4% |
| CCCCN1CCN(c2ccc3[nH]c(-c4ccc5[nH]c(-c6ccc(OCC)c(OCC)c6)nc5c4)nc3c2)CC1 | SRB | 10 µM, 48 h |  | growth percent | 14.3% |

Excerpt of the above:
| Structure (SMILES) | assay | setting | how to read | endpoint | value |
| --- | --- | --- | --- | --- | --- |
| CCN(CC)c1ccc(C=NNC(=O)CSc2nc3ccccc3c(=O)n2Cc2ccc(S(N)(=O)=O)cc2)c(O)c1 | NCI five-dose screen |  |  | TGI | > 100 µM |
